Measured values of several laboratories.
Compare with care: the assays were run in different laboratories. “And” joins repeats or separate records; there may be more than shown. ± gives the spread as reported.
Target: Cytochrome P450 2D6 (CYP2D6, Homo sapiens, UniProt P10635)
Chain of UniProt P10635 (whole entry, looked up): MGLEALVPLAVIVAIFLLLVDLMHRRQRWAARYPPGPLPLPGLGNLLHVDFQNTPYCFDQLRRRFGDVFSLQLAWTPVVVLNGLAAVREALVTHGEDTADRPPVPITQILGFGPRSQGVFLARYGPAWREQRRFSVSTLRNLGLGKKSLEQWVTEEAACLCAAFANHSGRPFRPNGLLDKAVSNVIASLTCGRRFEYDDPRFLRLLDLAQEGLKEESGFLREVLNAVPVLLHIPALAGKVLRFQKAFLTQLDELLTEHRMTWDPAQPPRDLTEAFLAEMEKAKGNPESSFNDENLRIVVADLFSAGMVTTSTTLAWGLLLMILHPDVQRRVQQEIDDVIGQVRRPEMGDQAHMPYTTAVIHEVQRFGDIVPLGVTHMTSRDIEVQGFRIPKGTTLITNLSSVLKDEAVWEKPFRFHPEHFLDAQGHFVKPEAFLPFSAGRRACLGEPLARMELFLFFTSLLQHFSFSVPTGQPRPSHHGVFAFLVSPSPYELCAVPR

For `CCc1nc(N)nc(N)c1C#CC(C)c1cc(-c2cc(C)nc(C)c2)ccc1OC(F)(F)F` (racemic), the IC50 was > 50 µM (enzyme activity, inhibitor, fluorescence).
With `Cc1ccc(OCC(=O)N(Cc2cccs2)c2ccn[nH]2)cc1` the inhibition was 15% (enzyme activity, inhibitor, mass spectrometry; human, liver microsomes; 10 µM).
`CCc1nc(N)nc(N)c1C#CC(C)c1cccc(-c2cc(C)nc(C)c2)c1` (racemic) gave an IC50 of 27.4 µM (enzyme activity, inhibitor, fluorescence).
For `NC(COc1ccccc1C(F)(F)F)c1ccccc1` (stereo not drawn), the metabolic rate was 43.6 ± 8.2 nmol/min/mg of protein (purified enzyme; 50 µM).
With `CCC(=O)N(C)c1ccc(Cl)c(Cl)c1` the half-life was > 3 h (recombinant enzyme Supersomes; 1 µM, with: NADPH).
`C[N+]1(CC(=O)OC2CCCCCCCCCCC2)CCCCC1` gave an IC50 of 1.58 µM (inhibitor).
For `CC1CCC2(OC1)OC1CC3C4CC=C5CC(OC6OC(CO)C(OC7OC(CO)C(O)C7O)C(O)C6OC6OC(C)C(O)C(O)C6O)CCC5(C)C4CCC3(C)C1(O)C2C` (stereo not drawn), the remaining activity was 33.3% (dextromethorphan O-demethylation; pooled human liver microsomes; 100 µM, 1 h, pH 7.4; baseline: vehicle).
The inhibition of `COc1cc(OC)c(F)c(/C=C/c2cnc3ccn(S(=O)(=O)c4cn(CCF)cn4)c3n2)c1F` is reported as 9% (enzyme activity, inhibitor; human, liver microsomes; 10 µM, 20 min, pH 7.4).
For `O=C(CS(=O)(=O)Cc1ccco1)C12CC3CC(CC(C3)C1)C2`, inhibition read “no inhibition” (inhibitor; 10 µM).
`CCC1CC2C(C)=CC3C(=O)CCCC3C=CC(C)=CC2C(=O)O1` (stereo not drawn) gave a remaining activity of 87.7% (human liver microsomes; 10 µM, 10 min, pH 7.4, with: dextromethorphan 2 µM; baseline: untreated).
The inhibition of `Brc1ccccc1-c1nnc(CSc2nnnn2-c2ccccc2)o1` is reported as -21% (fluorescence; insect cell microsomes; 10 µM; negative = possible induction).
With `CCc1nc(N)nc(N)c1C#C[C@H](C)c1cc(-c2cc(C)nc(C)c2)ccc1Cl` the IC50 was > 50 µM (enzyme activity, inhibitor, fluorescence).
`OC1(C(F)(F)F)CCN(c2nc(Nc3ccnc(C(F)(F)F)c3)nc(-c3cccc(C(F)(F)F)n3)n2)C1` (stereo not drawn): inhibition “no inhibition” (enzyme activity, inhibitor; human liver microsomes; concentration not given).
`CCc1nc(N)nc(N)c1C#CC(C)c1cc(F)cc(-c2cc(C)nc(C)c2)c1` (racemic) has an IC50 of > 50 µM (enzyme activity, inhibitor, fluorescence).
For `NS(=O)(=O)NCC(F)(F)c1ccccc1F`, the IC50 was > 120 µM and > 74 µM (enzyme activity, inhibitor, fluorescence).

Repeated from above:
`C[N+]1(CC(=O)OC2CCCCCCCCCCC2)CCCCC1` gave an IC50 of 1.58 µM (inhibitor).
For `CC1CCC2(OC1)OC1CC3C4CC=C5CC(OC6OC(CO)C(OC7OC(CO)C(O)C7O)C(O)C6OC6OC(C)C(O)C(O)C6O)CCC5(C)C4CCC3(C)C1(O)C2C` (stereo not drawn), the remaining activity was 33.3% (dextromethorphan O-demethylation; pooled human liver microsomes; 100 µM, 1 h, pH 7.4; baseline: vehicle).
